{"sequences": {"note": "The chains behind the UniProt entries cited, without tags or fusion partners. Residues count along the entry.", "UniProt A0ACI6R699, 1-443": "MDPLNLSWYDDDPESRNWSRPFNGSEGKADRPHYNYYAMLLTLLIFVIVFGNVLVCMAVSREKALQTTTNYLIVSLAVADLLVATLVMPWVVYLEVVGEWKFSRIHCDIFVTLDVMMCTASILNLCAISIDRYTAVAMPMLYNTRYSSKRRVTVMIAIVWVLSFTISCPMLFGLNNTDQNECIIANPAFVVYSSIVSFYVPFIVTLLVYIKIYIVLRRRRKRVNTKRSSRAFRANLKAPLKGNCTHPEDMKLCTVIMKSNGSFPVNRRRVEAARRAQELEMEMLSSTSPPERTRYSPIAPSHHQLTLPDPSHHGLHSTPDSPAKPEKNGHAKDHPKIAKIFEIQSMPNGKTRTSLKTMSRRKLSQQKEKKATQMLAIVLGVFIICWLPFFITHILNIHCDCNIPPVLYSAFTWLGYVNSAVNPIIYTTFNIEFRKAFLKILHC"}, "data": "Literature values that unrelated publications cite", "dfrA": "Dihydrofolate reductase (dfrA, Bacillus anthracis, UniProt Q81R22)", "note": "Protocols differ between the studies behind these lines. Numbers after ± are the reported error."}
{"Structure (SMILES)": "CCCC1c2ccccc2C=NN1C(=O)/C=C/c1cc(Cc2cnc(N)nc2N)cc(OC)c1OC (racemic)", "target or system": "dfrA", "quantity": "Ki", "value": "9.4 ± 0.2 nM"}
{"Structure (SMILES)": "O=C(O)CCC(=O)Nc1ccc(CCN2CN(c3ccccc3)C3(CCN(CCCC(=O)c4ccc(F)cc4)CC3)C2=O)cc1", "target or system": "Dopamine D2 receptor (Ovis aries, UniProt A0ACI6R699)", "assay": "binding", "test system": "sheep brain striatum membranes", "setting": "with: [3H]YM-09151-2", "quantity": "Kd", "value": "0.7 ± 0.06 nM"}
{"Structure (SMILES)": "COc1cc(Cc2cnc(N)nc2N)cc(/C=C/C(=O)N2N=Cc3ccccc3C2C=C(C)C)c1OC (racemic)", "target or system": "dfrA", "quantity": "Ki", "value": "8.3 ± 0.2 nM"}
{"Structure (SMILES)": "COc1cc(Cc2cnc(N)nc2N)cc(/C=C/C(=O)N2N=Cc3ccccc3C2CC(C)C)c1OC (racemic)", "target or system": "Bacillus anthracis", "quantity": "MIC", "value": "1 to 2 µg/mL"}
{"Structure (SMILES)": "Cc1cc(C(=O)N[C@@H](Cc2cccc3ccccc23)C(=O)N[C@@H](CC(C)C)C(=O)N[C@H](C=O)C[C@@H]2CCCNC2=O)no1", "target or system": "Caco-2", "assay": "cytotoxicity", "quantity": "CC50", "value": "> 100 µM"}
{"Structure (SMILES)": "CC[C@H](C)[C@H](NC(=O)[C@H](C)NC(=O)[C@H](CC(C)C)NC(=O)[C@H](CCC(N)=O)NC(=O)[C@H](CCCNC(=N)N)NC(=O)CNC(=O)[C@@H](NC(=O)[C@H](CCC(N)=O)NC(=O)CNC(=O)[C@H](CCSC)NC(=O)[C@@H](NC(=O)[C@H](CO)NC(=O)[C@H](CO)NC(=O)[C@@H]1CCCN1)[C@@H](C)O)C(C)C)C(=O)N[C@H](C(=O)NCC(=O)N[C@@H](CC(=O)O)C(=O)N[C@@H](CC(=O)O)C(=O)N[C@H](C(=O)N[C@@H](CC(N)=O)C(=O)N[C@@H](CCCNC(=N)N)C(=O)N[C@@H](CCCNC(=N)N)C(=O)N[C@@H](Cc1ccc(O)cc1)C(=O)N[C@@H](CC(=O)O)C(=O)N[C@@H](CO)C(=O)N[C@@H](CCC(=O)O)C(=O)O)[C@@H](C)CC)[C@@H](C)CC", "target or system": "variola virus F1L", "assay": "binding", "setting": "with: BH3 peptides", "quantity": "Kd", "value": "2640 nM"}
{"Structure (SMILES)": "N=C(N)c1ccc(Oc2ccc(-c3cc4ccc(C(=N)N)cc4[nH]3)cc2)cc1", "target or system": "neurons", "setting": "40 µM", "quantity": "cytotoxicity", "value": "not toxic"}
{"Structure (SMILES)": "CCOP(=O)(OCC)ON1C(=O)c2cccc3cccc(c23)C1=O", "test system": "rat", "setting": "oral", "quantity": "LD50", "value": "140 mg/kg"}
